Results of several laboratories.
A part holds a random share of what one study measured.

Series 1
Target: RING finger protein unkempt homolog, zinc fingers 1-6, GST-SBP tag (UNK, Homo sapiens, UniProt Q9C0B0, residues 30-357)
Chain of UniProt Q9C0B0 (30-357, looked up): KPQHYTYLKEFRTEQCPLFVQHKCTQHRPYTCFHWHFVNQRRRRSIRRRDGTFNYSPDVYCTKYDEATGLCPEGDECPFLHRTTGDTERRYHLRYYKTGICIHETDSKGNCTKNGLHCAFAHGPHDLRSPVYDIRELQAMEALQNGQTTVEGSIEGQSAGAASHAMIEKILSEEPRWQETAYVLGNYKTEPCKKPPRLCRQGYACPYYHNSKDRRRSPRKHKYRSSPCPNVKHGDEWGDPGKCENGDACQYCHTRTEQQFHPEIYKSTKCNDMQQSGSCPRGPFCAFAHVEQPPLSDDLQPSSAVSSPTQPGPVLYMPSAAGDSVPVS
Technique: RNA Bind-n-Seq
Molecule type: RNA
Medium: in vitro
Concentration: not given
Setting: RNA with constant flanks, human-mouse chimeric sites, ends assumed
Baseline: input RNA pool
Direction: higher = stronger binding
Strand | bound/input enrichment [ratio]
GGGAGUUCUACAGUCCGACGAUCCUUAUGGCUGCAGAAACAGGAAGUGGAAAAACUGGUGCAUUUAGUAUUCCCGUUAUCCAGAUAGUGUAUGAAACUCUGAAAGACCAACAGGAAGGAAAAAAAGGAAAAACAACUAUUAAACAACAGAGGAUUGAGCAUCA | 1.27
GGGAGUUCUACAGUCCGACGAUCUCGGAUGCUGUGCUGGGUCACUUUCCGUAUCCUGAUCCUUCACAGUGGACAGAUGAAGAACUGGGAAUCCCUCCUGAUGACGAGGACUGACACUGUAAACUCUCUGGACGAGUAGGAGCACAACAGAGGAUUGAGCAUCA | 0.717
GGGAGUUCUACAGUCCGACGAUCUCCUUGGAACCCAGUCAUAUAGGUGACCUGCAAAAAGCAGACACCAGUAGUCAAGGUGCUUUAGUGUUUCUCUCAAAGGACUACGAAAUAGAAAGUCAAAAUCCCCUGGCCUCUCCUACGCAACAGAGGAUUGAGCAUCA | 2.19
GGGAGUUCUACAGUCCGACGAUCGGUGGGGUGGUCAUUGCCGUUUGAGCUGCUGAUUUUCUUAUGAAUCAUUCAAAACUCUCGUGUAGGGUUGACAAUGUGGGGGGGUGGGGGAUCCAGCUUAUUCUUUUUCCCCAGCCCCCACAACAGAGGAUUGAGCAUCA | 0.486
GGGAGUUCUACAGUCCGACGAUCUAAAUUAGGGCUGCCGUUUUCUGUUUCUCCCUGGGCUGCGGAAAGCCAGAAGAUUUUAUCUAGCUUAUACAAGGCUGCUGGAGCUUGCUCUUUUUUUCCCUCUCUCUGUUUUUGGCUGCACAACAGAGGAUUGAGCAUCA | 0.935
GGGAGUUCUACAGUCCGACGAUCGUGACAGGUGUUAAGAUUUCCCCUCAGCAAAGAAGUGCAGUAGUCACCAUAAUUCCAUCUGUGGUGAGUGCCAGUCAGAUUGUGGAGCUGGUCCCAGAACUCAGUUUAGACAUGGGAACUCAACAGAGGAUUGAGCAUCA | 0.344
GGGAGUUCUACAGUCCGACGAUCCCACCAGGAUCCCAGAAACAUGACCCUUGCUGCCUACAAGGAGAAGAUGAAGGAGCUCCCGCUGGUGUCCUUGUUCUGCUCCUGCUUCCUGGCCGAUCCCCUGAAUAAGUCGUCCUACAACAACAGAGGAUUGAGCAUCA | 0.118
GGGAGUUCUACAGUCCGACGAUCCUGUGUGUGCUGAAUAAAUGGCUUGUAAAGAAGUUUUUCCAAGCUGUAACCCAUGCUGUUAUUAUAGUUGCUGCAAAAUGUUCUUCCUAUUGAUGUUGUUUGUUUACAACUGAAGGUCUCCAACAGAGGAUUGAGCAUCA | 0.223
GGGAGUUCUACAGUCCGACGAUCAAAGAGAAACUAAAGCAACUAAUAGAGAAGAGGAUUGGCAAAGAGAAAUUUCAUAGAAAACUAGGAUUUAUUAGCAAAACAUGAGUUUAUUCCAGAGCGUCUCAGAAACCCCAGCCAAACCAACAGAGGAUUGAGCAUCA | 13.3
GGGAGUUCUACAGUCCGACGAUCCAGCUGCAGACAGAAAAGGAUGAGAAGGAGCUGUAUAAGGUACAUUUGAAGAAUACAGAAAUAGAAAAUACGAAGCUUAUGUCAGAGGUCCAGACUUUAAAGAAUUUAGAUGGAAACAAACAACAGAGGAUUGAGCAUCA | 3.07
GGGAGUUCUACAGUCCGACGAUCGGCCUGGGACCGUCCUGGGCUAGUACAAAUAGCGGCAUGGAGGCUCAGAGAGGAAAGUUUGUUAGUGGAGGCAGUGGUAGAGGCCGUAUGUACGCUCCCUUUACUCGAUAGAUGUGUUCUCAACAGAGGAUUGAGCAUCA | 0.349

Series 2
Target: RNA binding protein fox-1 homolog 2, RRM domain, GST-SBP tag (RBFOX2, Homo sapiens, UniProt O43251-10, residues 100-194)
Technique: RNA Bind-n-Seq
Molecule type: RNA
Medium: in vitro
Concentration: 365 nM
Setting: natural RNA segment, single round, ends assumed
Baseline: no-protein control
Direction: higher = stronger binding
Construct (chain): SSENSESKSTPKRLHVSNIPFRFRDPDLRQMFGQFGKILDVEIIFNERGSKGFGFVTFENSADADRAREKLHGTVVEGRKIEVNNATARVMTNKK
Strand | RBNS enrichment (R)
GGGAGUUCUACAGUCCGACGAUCGUUUUAUUGAGAGGGAGACAAAUGGAGCUCCAACUAUUUACUCACUUUUGCAUAUAUUAGGUUUCCAAUUCUAUUCCAUUCUCACAAUAUAAGCAUAUAUAUCCCCAUUCUGGAAUUCUCGGGUGCCAA | 1.86
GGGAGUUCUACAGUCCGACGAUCUGUGCCACCCUGGGCUCUGUGGGCUGCACUCUGUGCCCAUGGGCACUGCUGGGUGGCCCAUCCCCCCUCACCAGGGGCAGGCACAGCACAGGGAUCCGACUUGAAUUUUCUGGAAUUCUCGGGUGCCAA | 0.413
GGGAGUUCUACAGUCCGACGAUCACACGCACCCACACAGACACAGAGGGAAGGGGUUGGGAUGGGGACAGGGUGCACAGCAGGGCGGGGUAGGACCCCAGCCCCUCCCAAAACAGCCUCUCCUUCUCCCAUAGUGGAAUUCUCGGGUGCCAA | 0.282
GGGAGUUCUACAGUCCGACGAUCAGAAAGAAAAACAUUCAACUUUAGCUGAAGCUCCUUUGAUACAAAAGUUUCAUUCUGUCAGAAAUAAGCCAUAGUACAGACUCAGAGAUAGAGGCAGUUUCUAGAGAACUUGGAAUUCUCGGGUGCCAA | 0.574
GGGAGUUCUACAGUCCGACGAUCUAGUACUAAAAUACUGUAGAAUUUUAGCAUUUUUAUUUUGCACUUUGUGUGGAUUGAGGUGUUCAGAAAUACCAACCAUAAAAAUGUAAUCUAGUUGGCAAAGGUGUGCGUGGAAUUCUCGGGUGCCAA | 1.24
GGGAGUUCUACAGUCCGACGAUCGCCCAGGCACUGAAUGUCUAGGACAUGCUGUGGAUGAAGAUAAAGAUGGUGGAAUAGGUUUUAUCACAUCUCUUAUUUCUCUUUUCCCCUUACUCUCUACCAUUUCCUUUUGGAAUUCUCGGGUGCCAA | 0.29
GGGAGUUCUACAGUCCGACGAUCAAGUUGCCAAUUUGCUAUAAAUCCCUUUUGCCAUCAGUCUGCUUACAGUGAUAUAUAUAGUGUUCUUAAAACGAUGUGUCUUGCUGCAGAAAUACUGAAAAAAUGCUGGUUGGAAUUCUCGGGUGCCAA | 0.426
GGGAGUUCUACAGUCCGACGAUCUAACUUUGUGCUGAGUUAGACAUCUGUAUUGUCAGUGAUUCUUGUAGAAUAUGUGCUCAGAUCUGAGUUAUAUUUAGUUUUGGAAGGUAAGUUGAAGAGUACUUUUGAUCUGGAAUUCUCGGGUGCCAA | 0.825
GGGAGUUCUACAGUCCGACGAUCCGGGGGGAGGAUGCCAGCAGCCUGCCUAUGGCUCCAGCUGUGCUGUGGCCCAGCAGCAUGGCCUGCAUCUGGAAGGACACAGGUUGCCAGAGCCCCUGGCACAACUCUAGUGGAAUUCUCGGGUGCCAA | 1.26

Series 3
Target: Fragile X messenger ribonucleoprotein 1, C-terminal low-complexity region (Fmr1, Mus musculus, UniProt P35922)
Technique: RNA Bind-n-Seq
Molecule type: RNA
Medium: in vitro
Concentration: 200 nM
Setting: whole 134-nt RNA, ends assumed
Together with: 150 mM LiCl
Baseline: input library
Direction: higher = stronger binding
Library: 7-deaza-guanosine replaces G
Strand | log2 enrichment
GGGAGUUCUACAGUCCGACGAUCCCUCAAGUCCUGUGCUACACAUCGUAUGUACCGAAUCGGGAAGGGAAGGAAGGAAAGUAUUAUGUUACGCCGUUCGGAUCUGCACUUCCAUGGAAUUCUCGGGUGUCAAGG | -1.69
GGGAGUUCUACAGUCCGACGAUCAAGUCCUGUGCUACACAUCGUAUGUACCGAAUCGGAAAAGGGAAAAGGGAAAAGGGAAAGUAUUAUGUUACGCCGUUCGGAUCUGCACUUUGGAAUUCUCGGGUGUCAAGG | -0.644
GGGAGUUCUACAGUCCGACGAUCCCUCAAGUCCUGUGCUACACAUCGUAUGUACCGAAUCGGUGGAAAAAGGUGGAAAGUAUUAUGUUACGCCGUUCGGAUCUGCACUUCCAGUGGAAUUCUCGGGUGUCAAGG | 0.399
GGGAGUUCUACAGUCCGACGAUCCCUCAAGUCCUGUGCUACACAUCGUAUGUACCGAAUCGGGGUGGUGGGUGGGGAAAGUAUUAUGUUACGCCGUUCGGAUCUGCACUUCCAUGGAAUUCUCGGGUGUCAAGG | -1
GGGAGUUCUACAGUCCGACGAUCGUCCUGUGCUACACAUCGUAUGUACCGAAUCGGGGUUUUUUUGGGGAAAGGGGUGGGGAAAGUAUUAUGUUACGCCGUUCGGAUCUGCACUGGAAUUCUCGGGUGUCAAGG | -1.36
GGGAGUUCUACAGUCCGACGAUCUGGGAGGUGGAUUAUGUUUAUUUUUUUAGCUCAUUUCCAGGGGUGGGAAUUUUUUUUUAAUAUGUGUCAUGAAUAAAGUUGUUUUUGAAAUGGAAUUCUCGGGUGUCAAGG | -0.857
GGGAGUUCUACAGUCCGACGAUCCCUGUGCUACACAUCGUAUGUACCGAAUCGGGAAAAAAAGGGAAAAAGGGUUUUUUUGGGAAAGUAUUAUGUUACGCCGUUCGGAUCUGCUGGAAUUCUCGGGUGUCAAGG | -2.35
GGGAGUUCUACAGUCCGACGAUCCCUGUGCUACACAUCGUAUGUACCGAAUCGGCCCCCCCGGCCCCCCCGGCCCCCCCGGGGAAAGUAUUAUGUUACGCCGUUCGGAUCUGCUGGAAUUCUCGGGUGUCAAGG | 1
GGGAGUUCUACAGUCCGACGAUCUUAGAUGAGGACCUUGAGAUUGAAUUGGUUGAGGAAGAGCCUCCAUUCCUGAGAGGGCACACUAAGCAAAGCAUGGACAUGAGCCCCAUUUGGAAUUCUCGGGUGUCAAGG | -1.21
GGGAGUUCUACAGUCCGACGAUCGCAGGAAGUAAAAACAAAUGGAAAUGCUUCGGAUAGUGGCAGGGGUGGGGGUUGCUAAGGAAAGGGUGAGAUGGGAGUGGGUAAAGAGUUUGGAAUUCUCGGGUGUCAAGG | 1.39
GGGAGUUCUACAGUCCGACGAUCGUCCUGUGCUACACAUCGUAUGUACCGAAUCAAACCCAAAUUUUUUUAAAUUUUUAAAAAAGUAUUAUGUUACGCCGUUCGGAUCUGCACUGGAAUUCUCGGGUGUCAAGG | -1.95

Series 4
Target: Histone acetyltransferase KAT6A, winged helix 2, GST fusion (KAT6A, Homo sapiens, UniProt Q92794, residues 85-181)
Technique: protein binding microarray
Molecule type: double-stranded DNA, one strand shown
Medium: in vitro
Concentration: not given
Setting: 8-mer, flanks averaged, mean of 2 arrays, mostly near background
Baseline: not given
Direction: higher = stronger binding
Target sequence (chain): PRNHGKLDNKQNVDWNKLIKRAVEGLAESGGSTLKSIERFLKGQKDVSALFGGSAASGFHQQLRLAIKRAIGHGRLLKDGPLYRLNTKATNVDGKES
Strand | E-score
TCCCCTCA | 0.0768
CCACCACC | -0.00381
AGGTATTC | -0.0531
CACCGACA | 0.0749
CATTAGAG | -0.049
CCTTAATA | -0.0258
CACAGGCG | 0.143
TGTAGCAA | 0.0784
CTCTGTGC | 0.0438
ACACCCCA | -0.137
ACACAGGT | -0.149
GATCACAC | -0.146
CAGAAAAA | 0.152
CGCTGTAC | -0.0929
AGCTGTGG | -0.0852
AAGGAGGG | 0.0495
AGTATCGG | -0.0508
CCACAACG | 0.0819
